Published values of several laboratories.
Parts stem from different laboratories: compare values within a part only. Values joined by “and” are separate records of one study, mostly repeats; a detail may differ.
Chain of UniProt P45985 (whole entry, looked up): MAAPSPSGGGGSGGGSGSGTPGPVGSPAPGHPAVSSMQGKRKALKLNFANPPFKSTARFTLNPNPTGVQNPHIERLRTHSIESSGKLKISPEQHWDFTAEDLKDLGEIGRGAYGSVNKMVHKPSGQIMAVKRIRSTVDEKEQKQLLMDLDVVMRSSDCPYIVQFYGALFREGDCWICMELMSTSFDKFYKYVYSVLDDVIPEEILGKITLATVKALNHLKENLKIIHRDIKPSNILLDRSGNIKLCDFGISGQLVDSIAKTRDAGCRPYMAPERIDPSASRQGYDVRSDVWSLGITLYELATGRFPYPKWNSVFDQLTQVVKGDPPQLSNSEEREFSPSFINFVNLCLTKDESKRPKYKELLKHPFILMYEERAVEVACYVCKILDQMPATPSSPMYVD
Chain of UniProt P07947 (whole entry, looked up): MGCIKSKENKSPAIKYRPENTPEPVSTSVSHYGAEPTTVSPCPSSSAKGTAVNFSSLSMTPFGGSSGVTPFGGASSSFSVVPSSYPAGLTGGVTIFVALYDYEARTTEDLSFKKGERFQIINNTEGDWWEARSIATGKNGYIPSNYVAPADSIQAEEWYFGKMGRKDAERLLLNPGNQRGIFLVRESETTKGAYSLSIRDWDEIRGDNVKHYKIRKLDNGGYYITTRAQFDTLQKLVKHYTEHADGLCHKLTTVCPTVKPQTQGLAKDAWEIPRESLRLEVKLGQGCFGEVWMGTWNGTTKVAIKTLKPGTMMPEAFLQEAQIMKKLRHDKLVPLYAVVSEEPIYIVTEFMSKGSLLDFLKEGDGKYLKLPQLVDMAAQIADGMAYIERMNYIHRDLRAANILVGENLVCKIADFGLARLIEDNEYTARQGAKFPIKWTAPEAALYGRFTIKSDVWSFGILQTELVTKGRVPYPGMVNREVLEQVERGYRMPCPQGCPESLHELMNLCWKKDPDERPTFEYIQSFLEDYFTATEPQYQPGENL
Chain of UniProt P08581 (whole entry, looked up): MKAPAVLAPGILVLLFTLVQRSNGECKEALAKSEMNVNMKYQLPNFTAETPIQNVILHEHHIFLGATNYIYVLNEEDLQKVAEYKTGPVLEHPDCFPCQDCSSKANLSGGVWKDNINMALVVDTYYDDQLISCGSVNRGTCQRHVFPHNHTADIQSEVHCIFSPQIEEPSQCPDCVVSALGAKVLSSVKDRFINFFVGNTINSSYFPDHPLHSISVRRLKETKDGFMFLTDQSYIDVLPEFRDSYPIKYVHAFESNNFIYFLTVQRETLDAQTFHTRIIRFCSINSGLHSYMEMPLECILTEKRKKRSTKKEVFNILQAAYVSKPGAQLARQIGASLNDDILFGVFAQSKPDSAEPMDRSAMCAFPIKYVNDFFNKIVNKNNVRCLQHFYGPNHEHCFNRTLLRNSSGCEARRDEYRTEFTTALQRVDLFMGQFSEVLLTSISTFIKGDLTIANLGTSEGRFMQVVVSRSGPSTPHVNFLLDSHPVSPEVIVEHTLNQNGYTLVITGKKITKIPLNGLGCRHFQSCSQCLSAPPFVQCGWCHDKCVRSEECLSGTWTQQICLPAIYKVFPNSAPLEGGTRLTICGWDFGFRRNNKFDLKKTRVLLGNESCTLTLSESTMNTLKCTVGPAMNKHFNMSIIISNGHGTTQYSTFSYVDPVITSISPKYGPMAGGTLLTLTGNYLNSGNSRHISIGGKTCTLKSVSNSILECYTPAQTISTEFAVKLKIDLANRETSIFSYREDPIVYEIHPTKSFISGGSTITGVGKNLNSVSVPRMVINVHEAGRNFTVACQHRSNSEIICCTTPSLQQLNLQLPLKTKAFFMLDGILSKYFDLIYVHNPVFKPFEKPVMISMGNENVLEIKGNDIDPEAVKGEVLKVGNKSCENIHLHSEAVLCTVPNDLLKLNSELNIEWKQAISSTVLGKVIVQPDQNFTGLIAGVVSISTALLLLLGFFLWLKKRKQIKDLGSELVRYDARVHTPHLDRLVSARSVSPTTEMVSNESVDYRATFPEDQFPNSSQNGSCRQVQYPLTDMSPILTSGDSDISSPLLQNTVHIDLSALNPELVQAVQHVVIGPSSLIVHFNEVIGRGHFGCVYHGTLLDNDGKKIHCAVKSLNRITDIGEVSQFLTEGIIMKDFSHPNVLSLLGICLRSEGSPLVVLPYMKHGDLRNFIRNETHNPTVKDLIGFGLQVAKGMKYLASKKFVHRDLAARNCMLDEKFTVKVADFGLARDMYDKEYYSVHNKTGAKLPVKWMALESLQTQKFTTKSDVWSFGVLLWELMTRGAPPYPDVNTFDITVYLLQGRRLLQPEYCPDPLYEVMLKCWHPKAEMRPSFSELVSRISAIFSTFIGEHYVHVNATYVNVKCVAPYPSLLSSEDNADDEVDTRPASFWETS
Chain of UniProt P35916 (whole entry, looked up): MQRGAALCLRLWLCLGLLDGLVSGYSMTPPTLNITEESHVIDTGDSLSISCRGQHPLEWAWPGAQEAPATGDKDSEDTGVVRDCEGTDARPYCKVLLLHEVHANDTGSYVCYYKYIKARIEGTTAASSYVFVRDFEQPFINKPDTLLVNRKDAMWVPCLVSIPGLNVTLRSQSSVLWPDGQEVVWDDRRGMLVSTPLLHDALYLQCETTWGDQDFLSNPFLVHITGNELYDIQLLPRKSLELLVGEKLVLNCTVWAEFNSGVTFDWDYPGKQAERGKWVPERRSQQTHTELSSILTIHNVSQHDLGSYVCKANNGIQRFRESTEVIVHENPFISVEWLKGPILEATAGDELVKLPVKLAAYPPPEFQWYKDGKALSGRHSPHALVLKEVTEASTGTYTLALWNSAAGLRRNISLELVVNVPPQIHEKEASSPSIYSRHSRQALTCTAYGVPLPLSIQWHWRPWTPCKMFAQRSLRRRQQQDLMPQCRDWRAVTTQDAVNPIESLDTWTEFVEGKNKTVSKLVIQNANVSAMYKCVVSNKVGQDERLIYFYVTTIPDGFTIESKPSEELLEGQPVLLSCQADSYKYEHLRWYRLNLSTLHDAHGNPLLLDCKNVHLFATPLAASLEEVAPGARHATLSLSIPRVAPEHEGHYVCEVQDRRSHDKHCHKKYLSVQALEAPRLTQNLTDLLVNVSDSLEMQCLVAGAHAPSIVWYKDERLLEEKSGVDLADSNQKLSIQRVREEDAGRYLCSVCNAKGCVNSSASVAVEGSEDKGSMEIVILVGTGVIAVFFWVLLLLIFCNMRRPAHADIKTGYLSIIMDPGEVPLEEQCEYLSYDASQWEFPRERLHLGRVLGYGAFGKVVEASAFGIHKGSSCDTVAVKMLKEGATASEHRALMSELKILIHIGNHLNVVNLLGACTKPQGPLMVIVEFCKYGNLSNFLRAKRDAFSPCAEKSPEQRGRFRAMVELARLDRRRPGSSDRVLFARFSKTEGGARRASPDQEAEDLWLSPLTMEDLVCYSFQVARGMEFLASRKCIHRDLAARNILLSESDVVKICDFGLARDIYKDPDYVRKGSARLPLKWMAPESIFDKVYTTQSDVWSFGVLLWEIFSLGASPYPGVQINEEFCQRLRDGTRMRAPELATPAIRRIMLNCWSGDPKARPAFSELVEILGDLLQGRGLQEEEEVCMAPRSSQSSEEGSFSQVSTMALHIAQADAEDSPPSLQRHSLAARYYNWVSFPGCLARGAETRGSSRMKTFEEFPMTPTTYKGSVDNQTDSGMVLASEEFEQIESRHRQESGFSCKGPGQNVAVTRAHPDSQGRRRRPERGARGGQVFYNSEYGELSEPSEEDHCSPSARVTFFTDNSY

Series 1
Structure (SMILES): COc1cc(C(=O)N2CCC(N3CCN(C)CC3)CC2)ccc1Nc1ncc2c(n1)N(C)c1ccccc1C(=O)N2C
target | assay | test system | conditions | inhibition [%]
p38beta human | KiNativ profiling | human PBMC lysate | concentration not given, ATP probe, other site | -21.4
PIP5K3 human | KiNativ profiling | human PBMC | 1 µM, ATP site, with: ADP acyl phosphate probe | 13.5
mouse FER | probe labelling, KiNativ ATP probe | mouse brain lysate | 1 µM, activation loop site | -20.4
MYLK | KiNativ ADP probe | mouse brain lysate | 0.1 µM, LYS1 site | 26.8
AMPKa1 and AMPKa2 (mouse) | probe labelling, KiNativ, measured: VAVkILNR peptide, Lys1 site | brain tissue lysate (mouse) | 1 µM, with: ATP acyl-phosphate probe | 5.3
MAP3K2 (mouse) | KiNativ ADP probe | mouse brain tissue | 0.1 µM, probe site LYS1 | -11.9
MAP2K6 (human) | probe labelling, KiNativ ADP probe | human PBMC lysate | concentration not given, LYS2 labelled site | -14.5
OSR1 (human) | probe labelling, KiNativ ATP probe | human PBMC lysate | concentration not given, LYS2 labelled site | 25.3
p38alpha (mouse) | probe labelling, inhibitor, KiNativ ActivX ATP probe | mouse brain lysate | 1 µM, peptide QELNkTIWEVPER | -15.2
PKD2 human | KiNativ profiling | human PBMC | 1 µM, LYS1 site, with: ATP acyl phosphate probe | 11.9
SLK mouse | KiNativ profiling | mouse brain lysate | 0.1 µM, LYS1 site, with: ADP acyl phosphate probe | -11.1

Series 2 — effect on: cell-free assay; method: competition with immobilised ligand; concentration: 1 µM
SMILES: COc1ccc2c(c1)O[C@H](c1ccc(OC)c(OC)c1)C[C@@H]2NC(=O)C1(c2ccc3c(c2)OC(F)(F)O3)CC1
target | remaining binding [%]
Cyclin-dependent kinase 4, with cyclin D3 (CDK4, Homo sapiens, UniProt P11802) | 100
WEE1 (Homo sapiens, UniProt P30291) | 100
FLT4 (Homo sapiens, UniProt P35916) | 97
MET (Homo sapiens, UniProt P08581) | 87
MAP2K4 (Homo sapiens, UniProt P45985) | 100
Tyrosine-protein kinase ABL1, phosphorylated (ABL1, Homo sapiens, UniProt P00519, T315I) | 100
YES1 (Homo sapiens, UniProt P07947) | 97
ACVR1 (Homo sapiens, UniProt Q04771) | 98

Series 3 — effect on: enzyme activity; action: inhibitor; concentration: 0.5 µM; relative to: control
Target: Vascular endothelial growth factor receptor 1 (FLT1, Homo sapiens, UniProt P17948)
Chain of UniProt P17948 (whole entry, looked up): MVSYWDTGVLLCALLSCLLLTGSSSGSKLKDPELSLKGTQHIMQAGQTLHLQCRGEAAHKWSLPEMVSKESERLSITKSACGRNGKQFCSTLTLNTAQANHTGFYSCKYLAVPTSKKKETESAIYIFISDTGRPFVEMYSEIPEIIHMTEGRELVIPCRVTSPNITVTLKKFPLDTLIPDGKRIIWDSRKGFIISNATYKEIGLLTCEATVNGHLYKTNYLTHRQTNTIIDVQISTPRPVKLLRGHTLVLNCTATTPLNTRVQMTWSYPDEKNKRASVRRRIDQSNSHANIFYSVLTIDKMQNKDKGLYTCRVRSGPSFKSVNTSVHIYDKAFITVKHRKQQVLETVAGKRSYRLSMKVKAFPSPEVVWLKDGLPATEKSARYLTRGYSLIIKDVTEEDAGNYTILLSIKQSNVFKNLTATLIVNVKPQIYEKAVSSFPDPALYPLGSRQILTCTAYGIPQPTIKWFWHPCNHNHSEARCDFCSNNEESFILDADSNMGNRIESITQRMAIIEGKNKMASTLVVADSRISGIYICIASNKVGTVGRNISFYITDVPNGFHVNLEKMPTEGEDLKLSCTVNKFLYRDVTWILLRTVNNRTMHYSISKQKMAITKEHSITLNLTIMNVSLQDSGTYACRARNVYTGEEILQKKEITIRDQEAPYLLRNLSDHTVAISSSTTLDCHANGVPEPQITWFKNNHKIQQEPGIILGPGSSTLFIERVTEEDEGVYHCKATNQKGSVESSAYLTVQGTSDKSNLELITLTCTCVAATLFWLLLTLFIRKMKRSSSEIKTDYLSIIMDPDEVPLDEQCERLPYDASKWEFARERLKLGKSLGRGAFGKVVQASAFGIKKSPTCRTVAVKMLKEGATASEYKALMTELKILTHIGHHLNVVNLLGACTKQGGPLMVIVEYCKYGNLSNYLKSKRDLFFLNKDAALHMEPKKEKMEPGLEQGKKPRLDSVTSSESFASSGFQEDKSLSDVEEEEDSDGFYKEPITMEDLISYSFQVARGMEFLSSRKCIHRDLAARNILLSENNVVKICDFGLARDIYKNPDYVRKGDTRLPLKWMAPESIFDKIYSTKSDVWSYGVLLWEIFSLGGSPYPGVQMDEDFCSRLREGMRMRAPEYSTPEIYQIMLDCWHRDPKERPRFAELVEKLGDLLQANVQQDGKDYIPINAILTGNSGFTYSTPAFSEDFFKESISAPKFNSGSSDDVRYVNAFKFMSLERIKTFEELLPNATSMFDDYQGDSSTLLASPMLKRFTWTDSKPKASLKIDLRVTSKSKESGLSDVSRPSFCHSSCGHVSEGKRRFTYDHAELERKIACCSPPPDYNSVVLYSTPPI
SMILES | remaining activity [%]
COc1cc2ncnc(Nc3ccc(Oc4ccccc4)cc3)c2cc1OC | 79.8
COc1ccc(C(=O)Nc2sc3c(c2C(N)=O)CCCC3)cc1OC | 99.1
CO[C@H]1C[C@@H]2CC[C@@H](C)[C@@](O)(O2)C(=O)C(=O)N2CCCC[C@H]2C(=O)O[C@H]([C@H](C)C[C@@H]2CC[C@@H](O)[C@H](OC)C2)CC(=O)[C@H](C)/C=C(\C)[C@@H](O)[C@@H](OC)C(=O)[C@H](C)C[C@H](C)/C=C/C=C/C=C/1C | 97.7
O=C1NC(=O)C(c2cn(CCCn3ccnc3)c3ccccc23)=C1Nc1ccccc1 | 85.7
O=C(O)c1ccc2c3c1cccc3c(=O)n1c3ccccc3nc21 | 86.5
O=C1NC(=O)C(c2cn(CCCO)c3ncccc23)=C1c1cnccn1 | 89.4
COc1ccc(OC)c2c(=S)c3ccccc3[nH]c12 | 101
O=c1c2ccccc2[nH]c(=S)n1CCN1CCC(=C(c2ccc(F)cc2)c2ccc(F)cc2)CC1 | 95.2
OCC(O)CCON=C1C(c2c(O)[nH]c3ccccc23)=Nc2ccccc21 (stereo not drawn) | 51
N#CC(C#N)=C(N)/C(C#N)=C/c1ccc(O)cc1 | 90.7
Cc1cccc(-c2[nH]c(C(C)(C)C)nc2-c2ccc3c(c2)OCO3)n1 | 84.3
Nc1ccc2ncnc(NCCc3ccc(Oc4ccccc4)cc3)c2c1 | 96
O=S(=O)(c1cccc2cnccc12)N1CCCNCC1 | 90
COc1cc2nccc(Oc3ccc(NC(=S)NC(=O)c4ccccc4C)cc3)c2cc1OC | 89.8
Cn1c2ccccc2c2c3c(c4c5ccccc5n(CCC#N)c4c21)CNC3=O | 63.6

Mixed results
SMILES | target or system | assay | test system | conditions | quantity | value
CC[C@H](C)c1nc2cc(Nc3ccnc4ccc(S(=O)(=O)C(C)C)cc34)ccc2s1 | RIPK3 (Homo sapiens, UniProt Q9Y572) | enzyme activity, inhibitor, ADP detection |  |  | IC50 | 11.1 nM
O=C1CCC(N2Cc3cc(C4CCN(Cc5ccccc5)CC4)ccc3C2=O)C(=O)N1 (stereo not drawn) |  |  | rat Sprague Dawley male, plasma | intravenous, 1.0 mg/kg | Vss | 13100 mL/kg and 10400 mL/kg
